Measured values from different studies.
Values joined by “and” are separate records of one study, mostly repeats; a detail may differ. ± marks the error that the study gave.
CNR2: Cannabinoid receptor 2 (CNR2, Homo sapiens, UniProt P34972)
UniProt P34972, sequence (whole entry, unmodified, looked up): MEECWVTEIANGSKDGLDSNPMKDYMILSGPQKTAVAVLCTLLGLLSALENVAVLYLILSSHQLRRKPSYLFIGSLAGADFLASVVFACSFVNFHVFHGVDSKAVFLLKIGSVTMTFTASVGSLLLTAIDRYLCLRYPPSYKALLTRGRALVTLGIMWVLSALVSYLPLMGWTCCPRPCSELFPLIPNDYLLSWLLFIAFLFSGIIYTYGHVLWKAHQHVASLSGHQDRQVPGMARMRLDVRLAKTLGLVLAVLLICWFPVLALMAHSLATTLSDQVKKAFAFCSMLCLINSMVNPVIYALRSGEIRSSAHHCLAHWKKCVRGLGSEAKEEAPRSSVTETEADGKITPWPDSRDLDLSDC

| SMILES | target | assay | test system | setting | quantity | result |
| --- | --- | --- | --- | --- | --- | --- |
| CCCCCn1cc(C(=O)c2ccc3ccccc3c2)c2ccccc21 | CNR2 | G protein activation, agonist, BRET |  |  | EC50 | 44.7 nM |
| CCOC(=O)[C@](CC)(CCCSCCOCCOCCNC(=O)c1ccc(-c2c3ccc(=N)c(S(=O)(=O)O)c-3oc3c(S(=O)(=O)O)c(N)ccc23)c(C(=O)O)c1)NC(=O)c1ccc(C2CC2)c(Cc2ccc(F)cc2)n1 | CNR2 | cAMP, agonist |  |  | EC50 | 1.3 nM |
| CCCCCn1cc(C(=O)c2ccc3c(c2)CC(C)(C)C3)c2ccccc21 | CNR2 (Homo sapiens, UniProt P34972, V261L) | G protein activation, agonist, BRET |  |  | EC50 | 2820 nM |
| CCOC(=O)[C@](CC)(CCCSCCOCCOCCNc1ccc([N+](=O)[O-])c2nonc12)NC(=O)c1ccc(C2CC2)c(Cc2ccc(F)cc2)n1 | CNR2 | ligand displacement, radioligand |  | cell membranes | Ki | 9.1 nM |
| O=C1C(=Cc2cn(Cc3ccc(F)cc3)c3ccccc23)N2CCC1CC2 | CNR2 | cAMP level, agonist | CHO expressing human CB2 | with: 10 µM forskolin | IC50 | 3.6 ± 2.5 nM |
| CCCCCn1cc(C(=O)c2cccc3ccccc23)c2cc(O)ccc21 | CNR2 | ligand displacement, radioligand |  | cell membranes | Ki | 115 nM |
| CC1=C[C@H]2c3c(O)cc(CCc4ccccc4)cc3OC(C)(C)[C@@H]2CC1 | CNR2 | ligand displacement, radioligand |  | cell membranes | Ki | 126 nM |
| CC(O)CCn1cc(C(=O)c2cccc3ccccc23)c2ccccc21 (stereo not shown) | CNR2 | ligand displacement, radioligand |  | cell membranes | Ki | 31.4 nM and 31 nM |
| CCCCCn1cc(C(=O)c2cccc3c2CC(C)(C)C3)c2ccccc21 | CNR2 | β-arrestin recruitment, agonist, BRET |  |  | EC50 | 1200 nM |
| CCOC(=O)C(CC)(CC)NC(=O)c1ccc(N2CC(OC)C2)c(OC[C@H]2C[C@@H]2CO)n1 | CNR2 | ligand displacement, radioligand |  | cell membranes | Ki | 0.3 nM |
